Assay results gathered from unrelated publications.
Parts stem from different laboratories: compare values within a part only.

Series 1
Target: Histone acetyltransferase KAT6A, winged helix 1, GST fusion (KAT6A, Homo sapiens, UniProt Q92794, residues 1-85)
Technique: protein binding microarray
Molecule type: double-stranded DNA, one strand shown
Medium: in vitro
Concentration: not given
Notes: 8-mer, flanks averaged, mean of 2 arrays, mostly near background
Baseline: not given
Direction: higher = stronger binding
Target sequence (chain): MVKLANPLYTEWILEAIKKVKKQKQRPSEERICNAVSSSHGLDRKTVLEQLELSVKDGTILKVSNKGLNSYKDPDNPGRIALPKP
Oligonucleotide	E-score
AAAAATGC	-0.0244
AGTCAGCG	0.163
GTCCTCGA	-0.0714
GAGAAATC	-0.0142
GAGAGAGC	-0.0485
CCGCACGA	0.187
ATCACAGC	-0.0071
CGGGTTAG	0.287
GACTTCCC	-0.0659
GCGGGGCA	0.236
CCGATTGC	0.217
ACAAGACA	-0.126
CCCGATAC	0.015
ATGATGCC	0.0967
GTCACCAA	-0.217
ATTAGCAG	-0.153
AGTAAACC	-0.0246
TGCACACA	-0.197
ACATCAGC	-0.0651
CCGGGGTC	0.264
ATGATAAG	-0.213
CCTGACAG	-0.205
AGACGTCC	-0.0659
GCTAGTCC	0.022
ACTTCAAA	-0.319

Series 2
Target: TAR DNA-binding protein 43, full length, His tag (TARDBP, Homo sapiens, UniProt Q13148, residues 1-414)
Technique: RNA Bind-n-Seq
Molecule type: RNA
Medium: in vitro
Concentration: 20 nM
Notes: 6-mer, flanks averaged, single round
With: 150 mM KCl
Baseline: input library
Direction: higher = stronger binding
Oligonucleotide	6-mer enrichment (R)
CCCCUC	0.656
UGACUC	0.6
UGUGCC	0.865
CCCGCU	0.618
AGGGCG	4.73
GCUUUU	0.686
CACGGG	2.26
AAUCGG	0.881
GUAUUC	0.594
CGGCGC	1.4
CGGAGA	1.47
CGACAG	0.912
CGCCCU	0.64
AUAAAG	0.735
AAACGU	0.603
ACCCUC	0.606
CAUUGU	0.608
CCCCAU	0.665
AUCGCU	0.569
GUGCUA	0.844

Series 3
Target: RNA binding protein fox-1 homolog 2, RRM domain, GST-SBP tag (RBFOX2, Homo sapiens, UniProt O43251-10, residues 100-194)
Technique: RNA Bind-n-Seq
Molecule type: RNA
Medium: in vitro
Concentration: 365 nM
Notes: natural RNA segment, single round, ends assumed
Baseline: no-protein control
Direction: higher = stronger binding
Shared flanks, not repeated: GGGAGUUCUACAGUCCGACGAUC … UGGAAUUCUCGGGUGCCAA
Construct (chain): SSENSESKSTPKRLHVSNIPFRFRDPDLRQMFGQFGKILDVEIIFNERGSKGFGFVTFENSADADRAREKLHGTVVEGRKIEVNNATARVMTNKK
Oligonucleotide	RBNS enrichment (R)
ACUUUUCUACUUUCAAGAACUAUGUAUCUCUUUUAUCCCACCACAACAUUUAUCUGUAGCUAAGAUAUUUUCUCUUAAUAAUUACCUCCCAAAUGCUUUUAGUGAACCGA	1.68
UUCUCAGGACUCAUUGUUCCACCCCCAACCAAUUUGAAUGCCUACAAUAAGUUCAGGAGCUGUGCCAAGCACUUUCCUCUUUUACAGCUGGAGAUCACUGGAAAGGUGUC	0.343
CCCCGUUCUUGGAAUUUUCUUCCCCAUGGGGCUGGGGUACUUUACAUUCAAUAAAUACUGUUUAACCAAUGUCCUGGUUUGUUUAUACACAGAAAGGUGGGUCCUGGAAC	0.658
UGUAACGCAUGUAAGAUGCUUAGGGUGCCUGGCCAGGACUCCGUGGUUUCCUGUUGUGACAGUAAUAAUGGUUAUAAUAAUAAAAAUGAUAAAAUUGCCAUCAUUCUAUU	9.57
CCCCUUUGGGGAGGGAGAGACAGACGGGCGGUUUGACUUGGACACAAAGAAAGCCUUGGUUUCUAAGAGUUGCCUCCAGCCUGCUUUCUGCUUCCUCAGCUCUAUGUCUC	0.426
ACAGUUUUCCCAAGGAACACGUACAAGAUCAUUUAGCCACUACUCUGCUGCCUCUCAGCCUCUGCUGGGGCUUCCAGCUGGGUACAUGGCUGCUUGGCCGUUUGGGGCGG	0.224
UCCCUCCCUACACACCCAGUGCGCUGUGGUUACAGACCGUGGGCUCCCUGAGUUCUGCCGGUGAGCUGCCGUCACUGGGAUGCGCCAAGGACCUUUCCUCCCCGGUCUCA	0.375
UAGAGUAGACUGGGCCAACAAGUCAACAAGUGGUGGCGUGUGCAAACGGGCUGCCCUAGUCAAGCCCAGUCCCUUCAACAGUAUGUCUGAUGCACCACAGGCCCUCCCUA	0.208
CAGUAAACCUAAAAGGUAGUGGAGAAUUGCUUCCUGCUAGCAGGAAGCCUUCAUCUUCUUGAGUACCCAAACCAGGCUUCAGGUGUCCUUUGAGGAUAGCCAGGUUUGAA	0.36
UGUCAGCUUCCUGUCUGGCUCAGUAUAGCCUCACUCUGCCGUUAUGCAAAUGGAGAUCAAAGUAAUUCUGACUGUCCAGGAGCUAUCUCACUUUCUGCUGUGUGGGCGGC	0.419
UGGCUUUGAAUGAUUACUAUUUGGUCUGUGUGCUACUAACAGAUAAUAAACGAUCACCAGGAAACUUCCUGAUGCCUUCUACUGUCUAGAGCAGCAGUUCUCAACCUUUG	0.553
CUGAGCCUUGUCACGCGCACUCGCCAAUUAAGAGAUGGACCAGCCAGCAGUCAAGUGCAUUCUCCAGUCCUUGCAAGAAGGAUCAGCCCUUUCUGUGCCAGCCUCGAUCG	0.452

Series 4
Target: Fragile X messenger ribonucleoprotein 1, C-terminal low-complexity region (Fmr1, Mus musculus, UniProt P35922)
Technique: RNA Bind-n-Seq
Molecule type: RNA
Medium: in vitro
Concentration: 200 nM
Notes: whole 134-nt RNA, ends assumed
With: 150 mM LiCl
Baseline: input library
Direction: higher = stronger binding
Each molecule: 7-deaza-guanosine replaces G
Shared flanks, not repeated: GGGAGUUCUACAGUCCGACGAUC … UGGAAUUCUCGGGUGUCAAGG
Oligonucleotide	log2 enrichment
UCCUGUGCUACACAUCGUAUGUACCGAAUCGGCCCCCCCGGCCCCCCCGGCCCCCCCGGAAAGUAUUAUGUUACGCCGUUCGGAUCUGCA	1.18
ACCAUGCAGGUGGGCAUCUUUGGGAAGUGGGGCAAGGGGGGGAUAGGGAGGGGGGUAACACUUUGGGACCAGGUGGUCCCAGGUCGUUUC	1.41
UCAAGUCCUGUGCUACACAUCGUAUGUACCGAAUCGGUUUGGAAAGGAAAAAGGAAAGUAUUAUGUUACGCCGUUCGGAUCUGCACUUCC	-0.57
ACCAUGCAGGUGGGCAUCUUUGGGAAGUGGGGCAAGGGGGGGAUAGGGAGGGGGGUAACACUUUGGUAACAGGUGGUCCCAGGUCGUUUC	1.16
GGUUUCUGGUGAGCUUCAUGGUUGACGCCCGGGGUGGUUCCAUGAGAGGAAGUCGCCACAACGGCCUGCGAGUGGUGAUCCCGCCACGGA	-4.38
CUCAAGUCCUGUGCUACACAUCGUAUGUACCGAAUCGGGAAGGGGAAGGGAAGGAAAGUAUUAUGUUACGCCGUUCGGAUCUGCACUUCC	-0.601
CACAGACAACACGCACCCACACAAAAACAGAGGGAAGGGGUUGGGAUGGGGACAGGGUGCACAGCAGGGCGGGGUAGGACCCCAGCCCCU	-0.0726
GCAGGAAGUAAAAACAAAUGGAAAUGCUUCGGAUAGUGGCAGGGGUGGGGGUUACUAAGGAAAGGGUGGGAUGGGAGUGGGUAAAGAGUU	1.47
UUGCAGCAACUGCUACCAGCCUCCCAGUCCACACAGCUGCCAUGCUCAAGUUCCCCUCAGGAGACCACCCAGUCUCGCCCUAUGCCGCCG	1.28
GUCCUGUGCUACACAUCGUAUGUACCGAAUCGGGCCCCCCGGCCCCCCGGGCCCCCCGGAAAGUAUUAUGUUACGCCGUUCGGAUCUGCA	0.656
CUCAAGUCCUGUGCUACACAUCGUAUGUACCGAAUCGGUGGAAAGGAAAAAGGAAAGUAUUAUGUUACGCCGUUCGGAUCUGCACUUCCA	-0.262

Series 5
Target: Interferon regulatory factor 5, full length, phosphomimetic (IRF5, Homo sapiens, UniProt Q13568-2, residues 1-514, S451D/S453D/S456D/S462D)
Technique: protein-binding microarray
Molecule type: double-stranded DNA, one strand shown
Medium: in vitro
Concentration: 940 nM top
Notes: 60-bp whole probe
With: salmon DNA 0.4 mg/ml
Baseline: random background probes
Direction: higher = stronger binding
Shared flanks, not repeated: GCCTAGCAC … GTCTTGATTCGCTTGACGCTGCTG
Oligonucleotide	fitted relative affinity
GGCGGTATCGGTTTCGGGACGTGCTAG	10.4 z-score
TCAGCTTTCTTTATGTAACTGTGCTAG	0.604 z-score
CATAGAGATGCCTGTCCTCTGTGCTAG	-0.639 z-score
TAGCTTCTCAATTAAAAAAAGTGCTAG	0.596 z-score
AACCATTTTGGTTTTCCTTAGTGCTAG	0.782 z-score
TTAGATTTCAGTTCCGATTGGTGCTAG	1.84 z-score
TTAGAACTGGACTATCGGTTAGTGCTA	0.106 z-score
GACGGTCTCGCTTTCGGGACGTGCTAG	2.28 z-score
TTACCTTTTCACTTTACACAGTGCTAG	1.91 z-score
TCATTTTTTTTTTTTGTACTGTGCTAG	1.09 z-score
TCAATATTGAGACTCATACTGTGCTAG	0.194 z-score
TTACAGATGTTTTTCATTTTGTGCTAG	0.703 z-score
TACGGTTTCGGTCTCGGGACGTGCTAG	13 z-score
TCAGCTCTTTCGTTACTTACTGTGCTA	2.11 z-score
TCAGTTTTACAATTTGCACTGTGCTAG	0.386 z-score
CACTGACACCGATTTCATCACGTGCTA	0.291 z-score
TTAGATTTCGGGTATCTATTAGTGCTA	1.74 z-score
CCTAGTTGTACTTTCTATCTGTGCTAG	1.05 z-score
TTAGGTTGCCTTATCCTTTAGTGCTAG	0.0207 z-score
TTAGATATTGGGACTGGATTAGTGCTA	0.0679 z-score
GACGATTTCAGTATCGCGACGTGCTAG	0.874 z-score
CCTAGTTTTACTTTCTATGTGTGCTAG	2.01 z-score
GACGGACTGGGGTATCGCGACGTGCTA	-0.0393 z-score
GACGGTTTCGGGACTTGGGACGTGCTA	6.28 z-score

Series 6
Target: Sal-like protein 4, full length isoform B (SALL4, Homo sapiens, UniProt Q9UJQ4-2, residues 1-616)
Technique: universal PBM
Molecule type: double-stranded DNA, one strand shown
Medium: in vitro
Concentration: not given
Notes: 8-mer, flanks averaged, mean of replicates
Direction: higher = stronger binding
Oligonucleotide	E-score
ACGTCATG	0.0891
CGTCACTC	-0.137
ACGACTTG	-0.0619
CGAGAAAC	-0.085
AGCGCACT	-0.329
ATCCGAAC	-0.0766
AACCGGGT	-0.337
GATAACAA	0.228
AAGCCAGG	-0.337
ACGTACAG	0.0158
CCCTGTGA	-0.158
ATTAATGA	0.341
GTTAATGA	0.24
ACTACACC	0.0723
CCATGCAG	-0.151
AGTAGTTC	0.0271
CTGCTAGA	-0.168
AGGATGGC	-0.119
CATTAAAA	0.305
ATTACGGC	0.0365

Mixed results
Substance	target	assay	system	conditions	how to read	quantity	value
PhoQ, residues 284 288 289 292 302 303 AGHLVA	PhoP, residues 12 14 15 18 19 NNFVT (Escherichia coli, UniProt P23836)	Sort-seq, item: YFP reporter	E. coli	PhoQ-PhoP variant library, with: 10 µM Mg2+	baseline: high Mg2+ state, higher = stronger signaling	fold induction	1.92
